Results from different studies.
Protocols differ between the studies behind these lines. Several values in a cell are separate wells, animals, samples, runs or records. ± marks the error that the study gave.

| Compound | test | system | conditions | how to read | endpoint | value |
| --- | --- | --- | --- | --- | --- | --- |
| [18F]c1ncccc1-c1ccc2c(n1)[nH]c1ccncc12 | PET imaging | Sprague-Dawley rat, both sexes | intravenous bolus | – | brain initial uptake | 2.5 to 2.8 SUV |
| CCCCCCCCCCCCCCCC(=O)N[C@@H](CCC(=O)NCCOCCOCCC(=O)NCCOCCOCCC(=O)NCCCC[C@H](NC(=O)[C@H](CC(=O)O)NC(=O)[C@H](CC(C)C)NC(=O)[C@H](Cc1ccc(O)cc1)NC(=O)[C@H](CCCCN)NC(=O)[C@H](CO)NC(=O)[C@H](Cc1ccc(O)cc1)NC(=O)[C@H](CC(=O)O)NC(=O)[C@H](CO)NC(=O)[C@@H](NC(=O)[C@H](Cc1ccccc1)NC(=O)[C@@H](NC(=O)CNC(=O)[C@H](CCC(N)=O)NC(=O)[C@@H](CO)NC(=O)[C@@H](N)Cc1c[nH]cn1)[C@@H](C)O)[C@@H](C)O)C(=O)N[C@@H](CCCNC(=N)N)C(=O)N[C@@H](CCCNC(=N)N)C(=O)N[C@@H](C)C(=O)N[C@@H](CCC(N)=O)C(=O)N[C@@H](CC(=O)O)C(=O)N[C@@H](Cc1ccccc1)C(=O)N[C@H](C(=O)N[C@@H](CCC(N)=O)C(=O)N[C@@H](Cc1c[nH]c2ccccc12)C(=O)N[C@@H](CC(C)C)C(=O)N[C@@H](CC(C)C)C(=O)N[C@@H](CC(N)=O)C(=O)N[C@H](C(=O)NCC(=O)NCC(=O)N1CCC[C@H]1C(=O)N[C@@H](CO)C(=O)N[C@@H](CO)C(=O)NCC(=O)N[C@@H](C)C(=O)N1CCC[C@H]1C(=O)N1CCC[C@H]1C(=O)N1CCC[C@H]1C(=O)N[C@@H](CO)C(N)=O)[C@@H](C)O)C(C)C)C(=O)O | – | rhesus monkey, female | subcutaneous, 20 µg/kg, day 1, median | – | Tmax | 1 h |
| CC[C@H](C)[C@H](N)C(=O)N[C@@H](CCCNC(=N)N)C(=O)N[C@H](C(=O)N[C@@H](Cc1c[nH]c2ccccc12)C(=O)N[C@@H](CCCCN)C(=O)N[C@@H](CCCCN)C(=O)N[C@H](C(=O)N[C@H](C(=O)N[C@@H](CCCNC(=N)N)C(=O)N[C@@H](CCCCN)C(=O)N[C@@H](Cc1c[nH]c2ccccc12)C(=O)N[C@@H](CCCCN)C(=O)N[C@@H](C)C(=O)N[C@H](C(=O)N[C@@H](Cc1c[nH]c2ccccc12)C(=O)N[C@@H](Cc1c[nH]cn1)C(N)=O)[C@@H](C)CC)C(C)C)[C@@H](C)CC)C(C)C | reversed-phase UPLC | C18 column, TFA | – | – | elution acetonitrile content | 44.7% |
| NC1CCN(C(=O)Oc2ccc(C3CCCC4(C3)OOC3(O4)C4CC5CC(C4)CC3C5)cc2)CC1 (racemic) | – | male ICR mice, plasma | intravenous, 10 mg/kg | – | AUC(0-t) | 1130 ng·h/mL |
| N=C(N)NCCC[C@H](NC(=O)[C@H](CCCNC(=N)N)NC(=O)[C@H](CCCNC(=N)N)NC(=O)[C@H](CCC(N)=O)NC(=O)[C@H](CCCNC(=N)N)NC(=O)[C@H](CCCNC(=N)N)NC(=O)[C@H](CCCCN)NC(=O)[C@H](CCCCN)NC(=O)[C@H](CCCNC(=N)N)NC(=O)CNC(=O)[C@H](Cc1ccc(O)cc1)NC(=O)[C@H](Cc1ccccc1)NC(=O)[C@H](Cc1ccccc1)NC(=O)[C@H](Cc1ccccc1)NC(=O)OCC1c2ccccc2-c2ccccc21)C(=O)O | – | C57BL/6 mice | intraperitoneal, 20 mg/kg, 0.5 h | direction not given | health score | 5 |
| Cn1nc(NS(C)(=O)=O)c2c(Cl)ccc(-n3c([C@H](Cc4cc(F)cc(F)c4)NC(=O)Cn4nc(C(F)F)c5c4C(F)(F)[C@@H]4C[C@H]54)nc4nc(OCCC(F)(F)F)ccc4c3=O)c21 | – | human, plasma | oral, 25 mg single dose, powder in bottle, geometric mean | – | AUC(0-inf) | 2760 ng·h/mL |
| CCCCC(CC)COC(=O)CC(C(=O)OCC(CC)CCCC)S(=O)(=O)O.CCCSc1ccc2[nH]c(NC(=O)OC)nc2c1 (centres unmarked) | visual inspection | Capryol 90 | – | – | solubility | ~30 mg/mL |
| O=C1NC2(CC2)COc2ncc(F)cc2[C@H]2COCCN2c2ccn3ncc1c3n2 | – | Sprague-Dawley rat, female, serum | oral, 5 mg/kg/day, 4 weeks daily, end of treatment | – | creatine kinase activity | 465 ± 133 U/L |
| CC(C)[C@@H]1NC(=O)CNC(=O)[C@H](CC(N)=O)NC(=O)[C@H](CCCNC(=N)N)NC(=O)[C@H](Cc2ccc(O)cc2)NC(=O)[C@H](C(C)C)NC(=O)[C@@H](NC(=O)[C@@H](NC(=O)[C@H](CC(N)=O)NC(=O)[C@H](Cc2c[nH]c3ccccc23)NC(=O)[C@H](C)NC(=O)[C@H](Cc2ccccc2)NC(=O)CNC(=O)[C@H](CCCCN)NC(=O)[C@H](Cc2ccccc2)NC(=O)[C@H](Cc2ccccc2)NC(=O)[C@H](CCCCN)NC(=O)OCC2c3ccccc3-c3ccccc32)C(C)C)CSSC[C@@H](C(=O)N[C@@H](Cc2c[nH]cn2)C(=O)N[C@@H](CCCNC(=N)N)C(=O)N[C@@H](CCCNC(=N)N)C(=O)N[C@@H](C)C(=O)N[C@@H](CC(N)=O)C(N)=O)NC(=O)[C@H](C(C)C)NC(=O)[C@H](CCCNC(=N)N)NC1=O | – | ICR mice, serum | intraperitoneal, 5 mg/kg, day 5 | – | ALT | 46.8 ± 3.14 IU/L |
| CC(C)C[C@H](NC(=O)[C@@H](N)CO)C(=O)N[C@@H](Cc1c[nH]c2ccccc12)C(=O)N[C@@H](CCC(=O)O)C(=O)N[C@@H](CC(N)=O)C(=O)N[C@@H](Cc1ccccc1)C(=O)N[C@@H](CCCCN)C(N)=O | – | horse erythrocytes | 2 h, 37 °C | relative to: Triton X-100 | HC50 | > 128 µM |
| CC(C)[C@H](NC(=O)[C@@H](NC(=O)[C@H](CCCNC(=N)N)NC(=O)[C@H](CCCNC(=N)N)NC(=O)[C@H](CCCNC(=N)N)NC(=O)[C@H](CCC(N)=O)NC(=O)[C@H](CCCNC(=N)N)NC(=O)[C@H](CCCNC(=N)N)NC(=O)[C@H](CCCCN)NC(=O)[C@H](CCCCN)NC(=O)[C@H](CCCNC(=N)N)NC(=O)CN)[C@@H](C)O)C(=O)N[C@H](C(=O)N[C@@H](CO)C(=O)N1CCC[C@H]1C(=O)O)[C@@H](C)O | – | ICR mice, male, lung | intranasal, 5 mg/kg daily, 4 weeks | – | organ weight | 0.348 ± 0.069 g |
| COc1cnc2cccc(N3CCc4c(cc(Cn5ccnc5)cc4-c4cn(C)nc4C(F)(F)F)C3=O)c2c1 | – | BALB/c nude mice, MV4-11 xenograft | intraperitoneal, 100 mg/kg, day 35 | – | body weight | 24.4 g and 22.3 g and 24.1 g and 22.4 g and 23.4 g |
| [2H]C([2H])([18F])[C@]([2H])(N)C(=O)O | – | mouse, bone | 110 min, tumour-bearing | – | tracer uptake | 16.4 %ID/g |
| CC(C)C[C@H](NC(=O)[C@H](Cc1ccc(O)cc1)NC(=O)[C@H](Cc1c[nH]cn1)NC(=O)[C@@H](NC(=O)[C@H](CC(C)C)NC(=O)[C@H](C)NC(=O)[C@H](C)NC(=O)[C@H](CCCCN)NC(=O)CNC(=O)[C@@H](NC(=O)[C@H](Cc1c[nH]cn1)NC(=O)[C@H](CCCCN)NC(=O)CNC(=O)[C@@H](NC(=O)[C@H](Cc1c[nH]cn1)NC(=O)[C@H](C)NC(=O)[C@H](C)NC(=O)[C@H](CCCCN)NC(=O)[C@H](CCCCN)NC(=O)[C@H](Cc1ccccc1)NC(=O)[C@H](Cc1ccccc1)NC(=O)[C@H](CO)NC(=O)CNC(=O)[C@H](Cc1c[nH]c2ccccc12)NC(=O)CN)C(C)C)C(C)C)[C@@H](C)O)C(N)=O | – | zebrafish embryos 4 hpf, E3 medium | 24 h | – | chronic toxic concentration | 1 µM |
| N#[11C]c1ccc(-c2csc(NN=C3CCCC3)n2)cc1 | – | C57BL/6 mice, male, muscle | intravenous, 3 MBq, 5 min | – | radioactivity uptake | 2.47 ± 0.48 %ID/g |
| CCN(C)C(=O)Oc1ccccc1/C=C1\Cc2cc(OC)c(OC)cc2C1=O | – | male Sprague-Dawley rat, plasma | oral, 100 mg/kg, single dose | – | AUC(0-t) | 2860 ng·h/mL |
| CC[C@H](C)[C@H](NC(=O)[C@H](CCCCN)NC(=O)CNC(=O)[C@H](CC(C)C)NC(=O)[C@H](Cc1ccccc1)NC(=O)[C@H](CCCCN)NC(=O)[C@H](CO)NC(=O)[C@H](Cc1ccccc1)NC(=O)[C@H](Cc1c[nH]c2ccccc12)NC(=O)[C@H](CCC(N)=O)NC(=O)[C@@H](NC(=O)[C@H](Cc1ccccc1)NC(=O)CCCCCNC(=O)CN1CCN(CC(=O)O)CCN(CC(=O)O)CCN(CC(=O)O)CC1)C(C)C)C(=O)N[C@@H](CCC(=O)O)C(=O)N1CCC[C@H]1C(=O)N[C@@H](CC(=O)O)C(=O)N[C@H](C(=O)N[C@@H](CO)C(=O)N[C@@H](CCC(N)=O)C(=O)N[C@H](C(=O)N[C@@H](CCC(N)=O)C(=O)N[C@@H](CC(=O)O)C(=O)N1CCC[C@H]1C(=O)N[C@@H](CC(N)=O)C(=O)N[C@@H](CC(=O)O)C(=O)N[C@@H](CCC(N)=O)C(=O)N[C@@H](Cc1ccc(O)cc1)C(=O)N[C@@H](CCC(=O)O)C(=O)N1CCC[C@H]1C(=O)N[C@@H](Cc1ccccc1)C(=O)O)C(C)C)C(C)C [copper-64 labelled] | – | C57BL/6 male mouse, tumour-naive, lung | 1 h | – | tissue uptake | 5.81 ± 0.7 %ID/g |

For quick reference, copied from above:
| Compound | test | system | conditions | how to read | endpoint | value |
| --- | --- | --- | --- | --- | --- | --- |
| CCN(C)C(=O)Oc1ccccc1/C=C1\Cc2cc(OC)c(OC)cc2C1=O | – | male Sprague-Dawley rat, plasma | oral, 100 mg/kg, single dose | – | AUC(0-t) | 2860 ng·h/mL |
| CC[C@H](C)[C@H](NC(=O)[C@H](CCCCN)NC(=O)CNC(=O)[C@H](CC(C)C)NC(=O)[C@H](Cc1ccccc1)NC(=O)[C@H](CCCCN)NC(=O)[C@H](CO)NC(=O)[C@H](Cc1ccccc1)NC(=O)[C@H](Cc1c[nH]c2ccccc12)NC(=O)[C@H](CCC(N)=O)NC(=O)[C@@H](NC(=O)[C@H](Cc1ccccc1)NC(=O)CCCCCNC(=O)CN1CCN(CC(=O)O)CCN(CC(=O)O)CCN(CC(=O)O)CC1)C(C)C)C(=O)N[C@@H](CCC(=O)O)C(=O)N1CCC[C@H]1C(=O)N[C@@H](CC(=O)O)C(=O)N[C@H](C(=O)N[C@@H](CO)C(=O)N[C@@H](CCC(N)=O)C(=O)N[C@H](C(=O)N[C@@H](CCC(N)=O)C(=O)N[C@@H](CC(=O)O)C(=O)N1CCC[C@H]1C(=O)N[C@@H](CC(N)=O)C(=O)N[C@@H](CC(=O)O)C(=O)N[C@@H](CCC(N)=O)C(=O)N[C@@H](Cc1ccc(O)cc1)C(=O)N[C@@H](CCC(=O)O)C(=O)N1CCC[C@H]1C(=O)N[C@@H](Cc1ccccc1)C(=O)O)C(C)C)C(C)C [copper-64 labelled] | – | C57BL/6 male mouse, tumour-naive, lung | 1 h | – | tissue uptake | 5.81 ± 0.7 %ID/g |
